Results pooled from the literature.
Each numbered part is a random draw from the data of one study; scales do not carry over between parts.

Sample 1
Target: Histone acetyltransferase KAT6A, winged helix 2, GST fusion (KAT6A, Homo sapiens, UniProt Q92794, residues 85-181)
Technique: protein binding microarray
Form: double-stranded DNA, one strand shown
Matrix: in vitro
Concentration: not given
Notes: 8-mer, flanks averaged, mean of 2 arrays, mostly near background
Relative to: not given
Direction: higher = stronger binding
Endpoint: E-score
Residues (chain): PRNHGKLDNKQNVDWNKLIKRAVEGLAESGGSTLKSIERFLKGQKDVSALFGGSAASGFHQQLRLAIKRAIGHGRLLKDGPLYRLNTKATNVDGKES
AGGGCAGC: 0.155
CACCCATA: -0.326
CGGATGCC: 0.176
AACGGCAA: 0.0257
CAACTGAC: -0.112
AGCCCCCG: -0.0241
CACGCTGG: 0.0841
GGCACACC: -0.153
GATCAACA: 0.0679
CGCTGAAA: -0.113

Sample 2
Target: RNA binding protein fox-1 homolog 2, RRM domain, GST-SBP tag (RBFOX2, Homo sapiens, UniProt O43251-10, residues 100-194)
Technique: RNA Bind-n-Seq
Form: RNA
Matrix: in vitro
Concentration: 365 nM
Notes: natural RNA segment, single round, ends assumed
Relative to: no-protein control
Direction: higher = stronger binding
Endpoint: RBNS enrichment (R)
Constant ends, left off below: GGGAGUUCUACAGUCCGACGAUC … UGGAAUUCUCGGGUGCCAA
Residues (chain): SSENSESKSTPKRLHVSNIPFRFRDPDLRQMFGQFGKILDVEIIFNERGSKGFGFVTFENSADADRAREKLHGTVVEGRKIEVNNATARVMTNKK
UGACUGCAAAGCCCUGGGUACUUGCCUUCAUGUUCUGGUUUGGUUUUCCCUUUUUCUGCUGCUCUUGGCAGCAGCCUGGUCAUCAUCUGCUUGUGGGAGUGGGAAAUGGG: 0.664
GUGAUGUAUGUAUAUGAGAAAAUUAAUUGUACGAUAUCAUUCCAGUACGUUUUGUUGUACAUUUUAGUCUUGUUUACUUUCUCUUCAUUGUUAAGAGGAUGCGAACUGUA: 1.01
GGUUUAUGAUCUUAAGUUGGUAACAUAGGAAUAUGUAUUUGUCAAUUUUAGUUCACAAACAUAUCCAUAAGAAUGUUUACACAUGGCAGUAUCAAAGCAUAUAAAAUAUU: 0.376
ACCUUUUUGAAGUUUGAGCCUUGAGCACCUUCAACAAAAUUGAGCACUCUGAUUAGGAUAUCCACUUUGCAAAUAAAACCAAAUGUUUUGUCAACAUGAUGGUAAAAAGG: 0.299
CGUCAUGUUUAGAGCUGAAGGAGUCUUCAUAGCCCAGGCUGUCCUGGGUAUUGCAGGAUGCUGAUUGAACAGCACCUGUGACCUUUCCUGCUCCAUGCCACUAGCAACCU: 0.229
AGAAGGGAGUGAUGUUCUUACUCUGGUGGUCUGUGCUUCUGAACACAGGCUACAUGCACACACUGACAACUACCAAUAAACAGACAGGGGAAGGUCUUUCAUCUCAGCCA: 0.657
UGCCAAAGGGAUGUGUUAGAAGGCUGCCUUCUCAUGCGCAUUGUCACUUGGAUCUUGUGGUGAGGACGGCCCCAUCUUUCUUGCCACAGAUUGAGGCCACUUUUGAGCAA: 0.257
UAGUCCCAUACCCUGAAGUAAUAUGUACCAUGGCUCCCACCUACCUGUUUAUGCUCUCCCUGCCCCCAGGGAAACUGUUUAUUCUUUCAAAAGAAGCAAACAGCGUUCAU: 0.359

Sample 3
Target: Sal-like protein 4, full length isoform B (SALL4, Homo sapiens, UniProt Q9UJQ4-2, residues 1-616)
Technique: universal PBM
Form: double-stranded DNA, one strand shown
Matrix: in vitro
Concentration: not given
Notes: 8-mer, flanks averaged, mean of replicates
Direction: higher = stronger binding
Endpoint: E-score
Residues (chain): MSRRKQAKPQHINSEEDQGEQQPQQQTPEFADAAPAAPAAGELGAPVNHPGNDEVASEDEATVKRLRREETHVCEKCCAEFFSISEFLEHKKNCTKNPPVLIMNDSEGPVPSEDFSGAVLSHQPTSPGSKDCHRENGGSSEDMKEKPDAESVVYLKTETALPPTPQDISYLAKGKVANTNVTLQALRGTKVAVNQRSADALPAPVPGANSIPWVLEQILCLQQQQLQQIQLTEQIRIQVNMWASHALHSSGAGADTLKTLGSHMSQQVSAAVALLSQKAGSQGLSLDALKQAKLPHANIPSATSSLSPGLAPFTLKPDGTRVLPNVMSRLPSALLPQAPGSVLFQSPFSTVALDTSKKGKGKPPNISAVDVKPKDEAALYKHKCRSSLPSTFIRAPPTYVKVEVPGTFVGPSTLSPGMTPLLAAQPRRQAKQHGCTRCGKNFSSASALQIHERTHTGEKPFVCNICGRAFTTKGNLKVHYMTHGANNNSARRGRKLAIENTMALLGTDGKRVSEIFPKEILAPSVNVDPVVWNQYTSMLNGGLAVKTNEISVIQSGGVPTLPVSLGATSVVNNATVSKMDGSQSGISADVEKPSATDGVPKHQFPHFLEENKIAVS
ACTATCCG: 0.05
CTCATATC: 0.174
GAGGACCA: -0.161
AGGTAAGG: 0.0249
CTAGTGGC: -0.0669
ATCTCGCA: 0.126
ACGCAGAG: -0.247
ACCTAACT: 0.0638
ATGTGATC: 0.126
TAACAGAA: 0.245
CGATCACA: 0.0997
GGCTAGGA: -0.0463

Single results of other studies
PhoQ, residues 284 288 289 292 302 303 AEGLLW — fold induction (PhoP, residues 12 14 15 18 19 LHHSG (Escherichia coli, UniProt P23836); Sort-seq, refers to: YFP reporter; E. coli; PhoQ-PhoP variant library, with: 10 µM Mg2+; relative to: high Mg2+ state, higher = stronger signaling): 15.8
